Measured values collected from several papers.
Each line is one published result; not all experiments were run side by side. Several values in a cell are separate wells, animals, samples, runs or records. ± marks the error that the study gave.
UniProt Q92973, sequence (whole entry, looked up): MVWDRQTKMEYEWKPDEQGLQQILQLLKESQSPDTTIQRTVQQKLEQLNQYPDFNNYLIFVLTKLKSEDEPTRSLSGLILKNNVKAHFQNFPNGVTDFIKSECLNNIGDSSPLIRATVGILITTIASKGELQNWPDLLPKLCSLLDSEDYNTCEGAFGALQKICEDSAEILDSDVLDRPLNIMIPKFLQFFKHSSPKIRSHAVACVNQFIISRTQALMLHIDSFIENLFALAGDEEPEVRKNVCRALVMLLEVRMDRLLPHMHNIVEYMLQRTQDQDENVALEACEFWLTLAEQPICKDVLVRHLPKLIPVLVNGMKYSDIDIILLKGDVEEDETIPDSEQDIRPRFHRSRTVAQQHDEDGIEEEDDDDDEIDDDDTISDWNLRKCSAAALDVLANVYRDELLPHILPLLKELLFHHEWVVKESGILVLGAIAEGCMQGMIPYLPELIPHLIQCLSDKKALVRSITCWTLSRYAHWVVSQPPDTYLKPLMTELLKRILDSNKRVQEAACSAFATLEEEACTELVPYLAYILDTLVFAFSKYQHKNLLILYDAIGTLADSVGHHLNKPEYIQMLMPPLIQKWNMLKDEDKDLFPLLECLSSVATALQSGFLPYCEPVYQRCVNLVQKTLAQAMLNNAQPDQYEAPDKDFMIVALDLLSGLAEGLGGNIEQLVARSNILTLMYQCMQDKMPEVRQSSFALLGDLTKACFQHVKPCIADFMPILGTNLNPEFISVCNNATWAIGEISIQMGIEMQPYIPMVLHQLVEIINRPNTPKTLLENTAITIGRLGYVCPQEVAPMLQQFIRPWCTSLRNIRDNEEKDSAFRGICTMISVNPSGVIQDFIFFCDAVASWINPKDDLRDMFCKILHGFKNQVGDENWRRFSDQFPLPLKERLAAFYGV
UniProt P10586, sequence (whole entry, looked up): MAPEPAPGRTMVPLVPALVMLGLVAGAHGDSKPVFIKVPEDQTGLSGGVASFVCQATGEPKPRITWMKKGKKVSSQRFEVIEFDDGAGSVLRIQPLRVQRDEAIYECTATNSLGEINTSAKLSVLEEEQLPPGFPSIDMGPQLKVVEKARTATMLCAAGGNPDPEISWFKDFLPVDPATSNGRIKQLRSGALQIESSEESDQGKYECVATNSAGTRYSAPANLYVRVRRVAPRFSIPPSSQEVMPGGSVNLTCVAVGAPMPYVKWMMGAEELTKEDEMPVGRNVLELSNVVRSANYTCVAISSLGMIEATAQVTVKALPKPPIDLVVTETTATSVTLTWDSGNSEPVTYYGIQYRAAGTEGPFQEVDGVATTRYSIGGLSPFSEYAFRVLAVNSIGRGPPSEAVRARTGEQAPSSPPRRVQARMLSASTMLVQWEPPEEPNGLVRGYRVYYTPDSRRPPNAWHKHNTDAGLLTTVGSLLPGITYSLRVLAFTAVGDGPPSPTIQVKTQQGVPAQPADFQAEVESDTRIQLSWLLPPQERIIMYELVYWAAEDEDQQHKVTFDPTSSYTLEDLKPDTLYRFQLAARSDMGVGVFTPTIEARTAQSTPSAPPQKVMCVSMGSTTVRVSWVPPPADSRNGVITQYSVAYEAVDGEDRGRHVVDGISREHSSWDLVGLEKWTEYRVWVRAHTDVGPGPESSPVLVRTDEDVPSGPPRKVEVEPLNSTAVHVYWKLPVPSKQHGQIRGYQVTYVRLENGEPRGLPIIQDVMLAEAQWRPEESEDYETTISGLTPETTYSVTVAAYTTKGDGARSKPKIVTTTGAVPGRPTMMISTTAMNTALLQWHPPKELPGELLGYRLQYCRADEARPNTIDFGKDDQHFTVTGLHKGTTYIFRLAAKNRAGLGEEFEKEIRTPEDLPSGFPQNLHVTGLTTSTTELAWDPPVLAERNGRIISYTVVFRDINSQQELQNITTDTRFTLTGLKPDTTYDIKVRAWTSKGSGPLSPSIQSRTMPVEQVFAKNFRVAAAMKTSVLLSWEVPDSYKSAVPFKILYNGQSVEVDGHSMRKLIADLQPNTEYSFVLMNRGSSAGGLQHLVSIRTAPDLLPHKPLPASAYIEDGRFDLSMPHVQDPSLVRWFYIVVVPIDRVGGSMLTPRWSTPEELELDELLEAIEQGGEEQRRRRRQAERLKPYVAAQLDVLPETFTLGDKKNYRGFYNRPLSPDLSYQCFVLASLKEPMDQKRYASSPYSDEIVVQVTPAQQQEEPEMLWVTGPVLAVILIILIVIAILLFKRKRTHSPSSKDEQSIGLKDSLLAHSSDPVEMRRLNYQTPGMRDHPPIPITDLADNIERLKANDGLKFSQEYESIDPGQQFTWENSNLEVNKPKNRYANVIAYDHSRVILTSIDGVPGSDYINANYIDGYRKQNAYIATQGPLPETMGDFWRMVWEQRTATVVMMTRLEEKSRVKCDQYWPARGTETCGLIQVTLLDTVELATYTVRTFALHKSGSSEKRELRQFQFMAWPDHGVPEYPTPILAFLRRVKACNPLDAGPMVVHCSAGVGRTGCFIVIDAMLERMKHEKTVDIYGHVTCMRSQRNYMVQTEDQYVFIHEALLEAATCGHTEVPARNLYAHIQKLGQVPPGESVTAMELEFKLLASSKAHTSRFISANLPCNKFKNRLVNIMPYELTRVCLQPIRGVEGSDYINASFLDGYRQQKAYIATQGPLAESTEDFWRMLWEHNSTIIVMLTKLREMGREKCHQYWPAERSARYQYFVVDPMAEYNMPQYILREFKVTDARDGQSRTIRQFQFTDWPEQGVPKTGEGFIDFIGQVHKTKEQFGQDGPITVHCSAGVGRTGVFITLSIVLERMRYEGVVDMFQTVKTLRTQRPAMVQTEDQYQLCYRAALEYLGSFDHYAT

SMILES | target or system | test | test system | setting | how to read | measurement | value
CO[C@H]1C[C@@H]2CC[C@@H](C)[C@@](O)(O2)C(=O)C(=O)N2CCCC[C@H]2C(=O)O[C@H]([C@H](C)C[C@@H]2CC[C@@H](OC(=O)NCCOCCOCCOCCOCCOCCOCCOCCOCCC(=O)N3CCc4cc(Cn5nc(-c6ccc7oc(N)nc7c6)c6c(N)ncnc65)ccc4C3)[C@H](OC)C2)C[C@@H](O)[C@H](C)/C=C(\C)[C@@H](O)[C@@H](OC)C(=O)[C@H](C)C[C@H](C)/C=C/C=C/C=C/1C |  | phase 1 dose escalation, measured: headache | advanced solid tumour patients | intravenous, 16 mg weekly, any grade |  | TRAE incidence | 50%
CC(=O)c1c(C)c2cnc(Nc3ccc(C4CCN(CCS(C)(=O)=O)CC4)cn3)nc2n(C2CCCC2)c1=O |  |  | human, dose-escalation trial, plasma | oral, 25 mg twice daily, day 21, multiple doses |  | AUC(0-inf) | 1110 ng·h/mL
C[C@]1(CO)Cc2ncn(-c3ccc(C#N)c(Cl)c3)c2C(=O)O1 |  |  | human, Chinese | 20 mg single dose |  | subjects with drug-related acne | 0%
O=C(O)CCCOc1ccc(F)cc1-c1cc(-c2ccccc2C(F)(F)F)n(-c2ccccc2)n1 |  |  | female Crl:CD(SD) rats | intravenous, 25 µg/kg, 14 d |  | MCH | 19.5 pg and 20.2 pg and 19.8 pg and 19.6 pg
N[C@@H]1c2ccccc2OC12CCN(c1cnc3c(N4CCCc5ncccc54)n[nH]c3n1)CC2 |  |  | advanced metastatic solid tumour patients | oral, 60 mg once daily |  | TEAE leading to interruption | 40%
O=[N+]([O-])NC1=NCCN1Cc1ccc(Cl)nc1 |  |  | cow whole milk | 2000 nM | baseline: milk fat over skim milk | milk fat partition ratio | 0.52
COc1cc(Nc2ncc(F)c(Nc3ccc4c(n3)NC(=O)C(C)(C)O4)n2)cc(OC)c1OC | Receptor-type tyrosine-protein phosphatase F (Homo sapiens, UniProt P10586) | phosphatase activity, inhibitor |  |  |  | IC50 | > 10 µM
O=C(Nc1ccccc1)C1CCN(C(=O)Oc2cccnc2)CC1 |  | measured: Nausea | healthy female human | concentration not given, all doses pooled |  | adverse event incidence | 13%
CC[C@H](C)[C@@H]1NC(=O)[C@@H]2CCCN2C(=O)[C@H](CC(C)C)NC(=O)[C@H](CC(C)C)NC(=O)CNC(=O)[C@@H](NC(=O)[C@@H](NC(=O)[C@H](CC(=O)O)NC(=O)CNC(=O)[C@@H](NC(=O)[C@H](C)NC(=O)CNC(=O)[C@H](CCCCN)NC(=O)[C@H](CC(C)C)NC(=O)[C@H](CC(C)C)NC(=O)[C@H](CCCCN)NC(=O)CNC(=O)[C@@H](NC(=O)[C@@H](N)CC(C)C)C(C)C)C(C)C)C(C)C)CSSC[C@@H](C(=O)O)NC1=O |  | RNA-seq, measured: Slamf7 | mouse, traumatic brain injury model, frontal cortex and hippocampus | dose not given | baseline: TBI alone | log2 fold change | -2.73
C[C@H]1CN(c2n[nH]c3nc(N[C@H]4CC[C@H](NS(=O)(=O)CCC(F)(F)F)CC4)ncc23)CCO1 | Transportin-1 (TNPO1, Homo sapiens, UniProt Q92973) | inhibitor, Kinobeads competition profiling |  | 0.8 µM | baseline: vehicle | relative abundance | 1.29
CC(C)[C@@H]1NC(=O)CNC(=O)[C@H](CC(N)=O)NC(=O)[C@H](CCCNC(=N)N)NC(=O)[C@H](Cc2ccc(O)cc2)NC(=O)[C@H](C(C)C)NC(=O)[C@@H](NC(=O)[C@@H](NC(=O)[C@H](CC(N)=O)NC(=O)[C@H](Cc2c[nH]c3ccccc23)NC(=O)[C@H](C)NC(=O)[C@H](Cc2ccccc2)NC(=O)CN)C(C)C)CSSC[C@@H](C(=O)N[C@@H](Cc2cnc[nH]2)C(=O)N[C@@H](CCCNC(=N)N)C(=O)N[C@@H](CCCNC(=N)N)C(=O)N[C@@H](C)C(=O)N[C@@H](CC(N)=O)C(N)=O)NC(=O)[C@H](C(C)C)NC(=O)[C@H](CCCNC(=N)N)NC1=O |  |  | ICR mice, serum | intraperitoneal, 10 mg/kg, day 5 |  | globulin | 18.9 ± 0.19 g/L
C1=Cc2nc1cc1ccc([n-]1)c(C1CC1)c1nc(cc3ccc([n-]3)c2C2CC2)C=C1.CC(=O)[O-].[Mn+3] |  | LC-MS/MS | Sprague-Dawley rat, plasma | oral gavage, dose not given, 120 min |  | mean plasma concentration | 245 ng/mL
O=c1cc(-c2ccc(O)c(O)c2)oc2cc(O)cc(O)c12 |  |  | male Sprague-Dawley rat, lean | oral, 100 mg/kg of neohesperidin, 12 to 24 h, after β-glucuronidase/sulfatase hydrolysis |  | urinary excreted amount, total | 29.2 ± 6.09 ng
CC1(CC(F)(F)F)NC(=O)N(c2ccc(F)c(C(F)(F)F)c2)C1=O (centres unmarked) |  |  | Schistosoma mansoni-infected NMRI mice | oral, 100 mg/kg, single dose |  | toxicity | toxic
CN1CC[C@@H](c2c(O)cc(O)c3c(=O)cc(-c4ccc(C(F)(F)F)cc4Cl)oc23)[C@@H]1CO |  | measured: urinary incontinence | B-cell malignancies | oral, 150 mg, grade 3 to 4, intermittent dosing |  | patients with adverse event | 0%
CC(C)n1c(C2CCNCC2)nc2c([N+](=O)[O-])c(Br)c(Br)cc21 |  | measured: Thrombocytopenia | AML patients | 125 mg |  | adverse events any grade | 30.9%
Cn1ncc(-c2nc(N[C@H]3CC[C@H](N)CC3)ncc2Cl)c1CC1CC1 |  | measured: hypoxia grade 3 or higher | human patients phase I | dose not given |  | adverse event incidence | 17%

Excerpt of the above:
SMILES | target or system | test | test system | setting | how to read | measurement | value
C1=Cc2nc1cc1ccc([n-]1)c(C1CC1)c1nc(cc3ccc([n-]3)c2C2CC2)C=C1.CC(=O)[O-].[Mn+3] |  | LC-MS/MS | Sprague-Dawley rat, plasma | oral gavage, dose not given, 120 min |  | mean plasma concentration | 245 ng/mL
CC[C@H](C)[C@@H]1NC(=O)[C@@H]2CCCN2C(=O)[C@H](CC(C)C)NC(=O)[C@H](CC(C)C)NC(=O)CNC(=O)[C@@H](NC(=O)[C@@H](NC(=O)[C@H](CC(=O)O)NC(=O)CNC(=O)[C@@H](NC(=O)[C@H](C)NC(=O)CNC(=O)[C@H](CCCCN)NC(=O)[C@H](CC(C)C)NC(=O)[C@H](CC(C)C)NC(=O)[C@H](CCCCN)NC(=O)CNC(=O)[C@@H](NC(=O)[C@@H](N)CC(C)C)C(C)C)C(C)C)C(C)C)CSSC[C@@H](C(=O)O)NC1=O |  | RNA-seq, measured: Slamf7 | mouse, traumatic brain injury model, frontal cortex and hippocampus | dose not given | baseline: TBI alone | log2 fold change | -2.73
